Results pooled from the literature.
Lines come from different studies, so protocols differ. Values joined by “and” are separate records of one study, mostly repeats; a detail may differ. ± marks the error that the study gave.

With CCCCCCCC(=O)OC[C@H](COP(=O)(O)O[C@@H]1[C@H](O)[C@H](O)[C@@H](OP(=O)(O)O)[C@H](OP(=O)(O)O)[C@H]1O)OC(=O)CCCCCCC the cooperativity factor was 5.36 (Kv7.2/Kv7.3(EEE) mutant channel; activator; model 5).
O=C(C#Cc1cn(Cc2ccccc2)c(=O)[nH]c1=O)NCc1ccccc1 — result for “remaining MMP-12 activity”: 100 ± 5% (MMP-12; inhibitor, colorimetric; 20 µM).
Oc1ccccc1-c1n[nH]cc1-c1ccnc2ccccc12 — result for “log2 fold change”: 0.32 (PKH3 (Candida albicans); kinase binding, MIB/MS competition; Candida albicans lysate; 10 µM; relative to: DMSO).
With CN(C)CCOc1cc(NC(=O)c2cc(Cl)cc(C(=O)Nc3cc(OCCN(C)C)c4ccccc4n3)n2)nc2ccccc12 the ΔTm was 19.6 ± 0.4 K (c-kit1 G-quadruplex DNA; FRET melting; 1 µM, pH 7.4, together with: 60 mM potassium).
c1coc(-c2n[nH]cc2-c2ccnc3ccccc23)c1 — result for “log2 fold change”: -0.12 (PKH3 (Candida albicans); kinase binding, MIB/MS competition; Candida albicans lysate; 10 µM; relative to: DMSO).
For C[n+]1cccc2cc(C=NNC(=O)c3ccc4ccc5ccc(C(=O)NN=Cc6ccc7c(ccc[n+]7C)c6)nc5c4n3)ccc21.[I-].[I-], the delta Tm was greater than 40 °C (G-quadruplex DNA 22CTA antiparallel; UV melting; 6 µM, K10 buffer, together with: DNA 3 µM).
Under “cells with nuclear reporter”, CC(Nc1nc(N2CCCC2)nc2ccccc12)c1ccccc1 (stereo not drawn) is recorded as 99.5% (transportin-1/2; FUS nuclear import, high content imaging; HeLa Kyoto reporter; 100 µM, 2 h).
The inhibition of C#Cc1cc(-c2cc(Nc3nc(N[C@@H](C)c4ccc(F)cn4)ncc3Cl)n[nH]2)ccc1C=O is reported as 67.5% and 68.5% (FGFR1OP-FGFR1 kinase fusion, human; kinase activity, inhibitor; 0.2 µM).
For NCCOc1cc(NC(=O)c2cc(OCc3ccc(F)cc3)cc(C(=O)Nc3cc(OCCN)c4ccccc4n3)n2)nc2ccccc12, the ΔTm was 15.5 ± 0.6 K (c-kit1 G-quadruplex DNA; FRET melting; 1 µM, pH 7.4, together with: 60 mM potassium).

For quick reference, copied from above:
O=C(C#Cc1cn(Cc2ccccc2)c(=O)[nH]c1=O)NCc1ccccc1 — result for “remaining MMP-12 activity”: 100 ± 5% (MMP-12; inhibitor, colorimetric; 20 µM).
